Experimental data collected from several papers.
A part holds a random share of what one study measured.

Study 1 — technique: RNA Bind-n-Seq; molecule type: RNA; matrix: in vitro; concentration: 200 nM; setting: whole 134-nt RNA, ends assumed; together with: 150 mM KCl; relative to: input library; direction: higher = stronger binding
Target: Fragile X messenger ribonucleoprotein 1, C-terminal low-complexity region (Fmr1, Mus musculus, UniProt P35922)
Sequence | log2 enrichment
GGGAGUUCUACAGUCCGACGAUCUGUGCUACACAUCGUAUGUACCGAAUCGGGGUUUUUUUGGGGUUUUUUUGGGGUUUUUGGGGAAAGUAUUAUGUUACGCCGUUCGGAUCUUGGAAUUCUCGGGUGUCAAGG | 0.36
GGGAGUUCUACAGUCCGACGAUCGUCCUGUGCUACACAUCGUAUGUACCGAAUCAAACCCCCAAAUUUAAACCCCCCCAAAAAAGUAUUAUGUUACGCCGUUCGGAUCUGCACUGGAAUUCUCGGGUGUCAAGG | 0.00411
GGGAGUUCUACAGUCCGACGAUCGUCCUGUGCUACACAUCGUAUGUACCGAAUCGGGUUUUUUUGGGAGGGUUUUUUUGGGAAAGUAUUAUGUUACGCCGUUCGGAUCUGCACUGGAAUUCUCGGGUGUCAAGG | 0.058
GGGAGUUCUACAGUCCGACGAUCACCAUGCAGGUGGGCAUCUUUGGGAAGUGGGGCAAGGGGGGGAUAGCGAGGGGGGUAACACUUUGGGAACAGGUGGUCCCAGGUCGUUUCUGGAAUUCUCGGGUGUCAAGG | 0.531

Study 2 — technique: universal PBM; molecule type: double-stranded DNA, one strand shown; matrix: in vitro; concentration: 600 nM; direction: higher = stronger binding
Target: Sal-like protein 4, full length isoform A (SALL4, Homo sapiens, UniProt Q9UJQ4, residues 1-1053)
UniProt Q9UJQ4, sequence (whole entry, looked up): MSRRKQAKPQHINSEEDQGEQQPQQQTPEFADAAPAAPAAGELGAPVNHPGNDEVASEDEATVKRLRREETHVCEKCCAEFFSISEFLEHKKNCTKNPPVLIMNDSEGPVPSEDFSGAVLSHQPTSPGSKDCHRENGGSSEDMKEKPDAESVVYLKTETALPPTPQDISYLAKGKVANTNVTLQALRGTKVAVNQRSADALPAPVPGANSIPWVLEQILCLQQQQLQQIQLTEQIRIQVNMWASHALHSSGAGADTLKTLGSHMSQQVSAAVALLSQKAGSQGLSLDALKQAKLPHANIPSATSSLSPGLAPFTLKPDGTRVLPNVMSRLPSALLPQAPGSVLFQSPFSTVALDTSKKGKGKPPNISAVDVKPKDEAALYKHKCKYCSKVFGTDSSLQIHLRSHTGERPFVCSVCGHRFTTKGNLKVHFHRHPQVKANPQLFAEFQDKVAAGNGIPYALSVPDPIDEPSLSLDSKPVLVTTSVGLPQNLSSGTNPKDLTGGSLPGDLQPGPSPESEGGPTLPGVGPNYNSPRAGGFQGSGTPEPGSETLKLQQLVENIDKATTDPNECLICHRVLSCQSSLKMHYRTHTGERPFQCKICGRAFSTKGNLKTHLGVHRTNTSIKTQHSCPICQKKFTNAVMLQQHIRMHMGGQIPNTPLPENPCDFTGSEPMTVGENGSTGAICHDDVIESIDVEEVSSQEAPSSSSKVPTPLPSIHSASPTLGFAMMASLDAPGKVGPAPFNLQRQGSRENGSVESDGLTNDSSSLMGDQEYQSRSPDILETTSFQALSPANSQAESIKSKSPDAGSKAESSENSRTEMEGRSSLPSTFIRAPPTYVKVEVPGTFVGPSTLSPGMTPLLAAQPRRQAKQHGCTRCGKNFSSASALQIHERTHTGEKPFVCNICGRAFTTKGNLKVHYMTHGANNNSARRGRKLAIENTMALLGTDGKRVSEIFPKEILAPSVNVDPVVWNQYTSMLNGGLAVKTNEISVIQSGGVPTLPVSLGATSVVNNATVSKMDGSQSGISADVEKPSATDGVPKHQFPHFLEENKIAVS
Setting: 8-mer, flanks averaged, mean of replicates
Sequence | E-score
GCTAAATA | 0.246
CCACTCCA | -0.128
GCGCAGAC | -0.247

Study 3 — technique: protein binding microarray; molecule type: double-stranded DNA, one strand shown; matrix: in vitro; concentration: not given; relative to: not given; direction: higher = stronger binding
Target: Histone acetyltransferase KAT6A, both winged helices, GST fusion (KAT6A, Homo sapiens, UniProt Q92794, residues 1-181)
Setting: 8-mer, flanks averaged, mean of 2 arrays, mostly near background
Residues (chain): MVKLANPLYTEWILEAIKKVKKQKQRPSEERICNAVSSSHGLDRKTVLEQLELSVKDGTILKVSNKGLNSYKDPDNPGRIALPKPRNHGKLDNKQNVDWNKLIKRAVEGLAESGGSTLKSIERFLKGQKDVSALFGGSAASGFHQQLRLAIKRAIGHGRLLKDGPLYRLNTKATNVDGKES
Sequence | E-score
CGTATCAG | 0.049
CGCTAAGC | 0.299
TGCGAAAA | 0.104
ACTATGTG | -0.0804
AGCCAGAA | -0.122
GATTAAGC | -0.0676

Mixed results
Molecule | target | assay | system | setting | scale | quantity | result
PhoQ, residues 284 288 289 292 302 303 SLANIV | PhoP, residues 12 14 15 18 19 LHHVQ (Escherichia coli, UniProt P23836) | Sort-seq, item: YFP reporter | E. coli | PhoQ-PhoP variant library, together with: 10 µM Mg2+ | relative to: high Mg2+ state, higher = stronger signaling | fold induction | 1.06
